Published values pooled from the literature.
Parts stem from different laboratories: compare values within a part only. Positions count from the first letter of the parent shown.

Series 1
Target: RING finger protein unkempt homolog, zinc fingers 1-6, SBP tag (UNK, Homo sapiens, UniProt Q9C0B0, residues 30-357)
UniProt Q9C0B0, sequence (30-357, looked up): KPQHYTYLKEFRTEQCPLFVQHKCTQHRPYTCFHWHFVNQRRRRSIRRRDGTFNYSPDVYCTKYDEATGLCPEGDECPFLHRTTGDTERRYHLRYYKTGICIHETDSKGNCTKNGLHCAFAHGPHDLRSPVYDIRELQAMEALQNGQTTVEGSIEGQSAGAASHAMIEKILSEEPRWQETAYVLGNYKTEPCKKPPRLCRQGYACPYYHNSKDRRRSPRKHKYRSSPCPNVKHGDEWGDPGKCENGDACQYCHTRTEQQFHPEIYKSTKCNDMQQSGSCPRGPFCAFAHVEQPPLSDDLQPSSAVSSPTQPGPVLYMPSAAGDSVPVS
Method: RNA Bind-n-Seq
Form: RNA
Sample: in vitro
Concentration: 100 nM
Notes: RNA with constant flanks, vertebrate orthologous sites, ends assumed
Reference: input RNA pool
Direction: higher = stronger binding
Endpoint: bound/input enrichment
Shared flanks, not repeated: GGGAGUUCUACAGUCCGACGAUC … CAACAGAGGAUUGAGCAUCA
Strand = AUAUUUGCUCAAUUGAAUUAUUUAGAUAAAAGAAAUUUAUUGUUUAUGUUUUCUUUCAAGCAGUCUAUCCUAUAUUUAUCCAUUUGCAAAUGCCAGUUUUGUGUGGAUUCUUAGCAUAUC; value = 0.754 ratio
Strand = CUAAAUCCCAUCUCUUCUGUUUCAUAGUGUGGAAGUAUUUCUUCAACAACCAUAACUUUAAUGACAAUUUUUUAAAAAUUCUACAGAAACUUCCAGUGUGGAUACUAUAAGAAUGGGCCA; value = 0.559 ratio
Strand = UUCAGUCUUCCACAUAGGGUCGGCCUCAGAUCUAUAGGAUUUAUGACAAAUGUAUUAUUAUAUCUAGUUGAGUUUAAUAUUUUUUUAUUAGCCUGUAAAUAAAGAUGGCAUCUUCUACAU; value = 1.06 ratio
Strand = CAGCCGAUUCUCUCAUCGGACGAGCUGCCCACAUUGCUGUUCUAGACUCUGACAUAUUCUUAGAAAAAUUCUUUCUGGUUGCCGGCCUCAAAUAUUUCCAGUAGGAAUAAAACCAUUGUA; value = 1.06 ratio
Strand = AAGUUUACUUUAUGCCGUGGACUCCGUACCGAACUGACACGCUCAUCGAGUACUCCUCGCUCGACGACUUCCAGAACUCGCGGCAAACCACCACGUAUAAACUGCCACAUCGAGUGGACG; value = 0.161 ratio
Strand = GCAAAGAAAAAGCAGCCCUUCUCCCAGCCCCUUUUUCACUAGGAGAUACAAACGUUACCAUAGAAGAGCAAUUAAACUCAAUAAAUUUAUCUUUUCAGGAUGAUCCAGACUCCAGUACCA; value = 1.95 ratio
Strand = UCUAUAUAAUUCUAAUGAUACUUCCUUAUAUGACACUUUGGCUCUUCAUACAUUUAAUCGUAUUUACAAGCUAUUUUUUAUAAAUAGCAGCAUAAAUUCAAAGGAGCUUACUUGGUAUUU; value = 0.324 ratio
Strand = CACAUCCGGUGAUAUUUGGCCAGGCCUUUCAGCUUAUGAUAAUAGUCCUAGAUCACCCCAUAGUCCUUCACCUAUUGCUACACCACCUAGUCAGAGUUCAUCUUGCUCUGAUGCCCCUAU; value = 1.26 ratio

Series 2
Target: ABI1, truncated, D143A, DHFR fusion (Arabidopsis thaliana)
Method: DHFR PCA, deep sequencing
Sample: yeast
Notes: methotrexate growth selection, single substitutions
Together with: (+)-ABA 4.8 µM
Reference: wild-type fitted maximum
Direction: higher = stronger binding
Endpoint: relative binding score
Starting sequence: PYL1, truncated, DHFR fusion (Arabidopsis thaliana); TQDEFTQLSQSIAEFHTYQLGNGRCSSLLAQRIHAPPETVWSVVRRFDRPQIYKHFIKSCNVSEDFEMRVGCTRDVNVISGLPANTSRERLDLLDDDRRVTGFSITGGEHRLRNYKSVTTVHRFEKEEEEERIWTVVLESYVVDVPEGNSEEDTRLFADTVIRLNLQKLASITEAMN
Variant = Q167C; value = 59.2%
Variant = K54C; value = 4.6%
Variant = G71H; value = 6.07%
Variant = T6Y; value = 57.8%
Variant = G23Q; value = 50.1%
Variant = I33C; value = 39.3%
Variant = E152W; value = 49.8%
Variant = T160I; value = 17.2%
Variant = N77H; value = 85.9%
Variant = T173A; value = 76.8%
Variant = R111N; value = 8.88%
Variant = L29C; value = 39.2%
Variant = D95S; value = 15%
Variant = E127R; value = 75.7%
Variant = C25T; value = 71.7%
Variant = G81H; value = -10.3%
Variant = A13C; value = 53.5%
Variant = L164M; value = 80.1%

Series 3
Target: CREB3L2, bZIP domain (human)
Method: DHFR protein complementation
Sample: yeast
Notes: single substitutions, most at no-binding floor
Reference: wild-type JUN-FOS pair
Direction: higher = stronger binding
Endpoint: binding fitness
Starting sequence: JUN, bZIP domain (human); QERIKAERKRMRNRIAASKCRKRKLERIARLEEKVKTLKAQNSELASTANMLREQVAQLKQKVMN; partner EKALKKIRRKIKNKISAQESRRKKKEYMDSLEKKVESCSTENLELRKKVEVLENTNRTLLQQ
Variant = Q58S; value = -1.5 natural log
Variant = A49C; value = -1.51 natural log
Variant = T48G; value = -1.47 natural log
Variant = A40Q; value = -1.38 natural log
Variant = A29F; value = -1.52 natural log
Variant = N42T; value = -1.49 natural log
Variant = K34L; value = -1.32 natural log
Variant = A49G; value = -1.55 natural log
Variant = V56K; value = -1.48 natural log
Variant = L52T; value = -1.33 natural log
Variant = S43R; value = -1.39 natural log
Variant = N42P; value = -1.53 natural log
Variant = L31P; value = -1.52 natural log
Variant = L45H; value = -1.58 natural log
Variant = E32G; value = -1.35 natural log
Variant = Q55E; value = -1.49 natural log
Variant = A40V; value = -1.51 natural log
Variant = M51N; value = -1.11 natural log
Variant = A46G; value = -1.48 natural log
Variant = L45Y; value = -1.54 natural log
Variant = A46V; value = -1.3 natural log
Variant = A40G; value = -1.33 natural log
Variant = L45R; value = -1.53 natural log
Variant = K34C; value = -1.32 natural log
Variant = M51K; value = -1.43 natural log

Series 4
Target: Sal-like protein 4, full length isoform B (SALL4, Homo sapiens, UniProt Q9UJQ4-2, residues 1-616)
Method: universal PBM
Form: double-stranded DNA, one strand shown
Sample: in vitro
Concentration: not given
Notes: 8-mer, flanks averaged, mean of replicates
Direction: higher = stronger binding
Endpoint: E-score
Strand = CTACTGTA; value = 0.122
Strand = GATATCAA; value = 0.248
Strand = AGGTGCCG; value = -0.226
Strand = CCCCGACC; value = -0.294
Strand = CCAAGGGA; value = -0.235
Strand = CGGGCATA; value = -0.00139
Strand = ACACTAAG; value = 0.111
Strand = AAAAATCA; value = 0.247
Strand = ACGATTCT; value = 0.116
Strand = AATACAAT; value = 0.315
Strand = CTTTAAAA; value = 0.232
Strand = ACTGTGTG; value = -0.137
Strand = GTCAGCCA; value = -0.104
Strand = GATTCCTA; value = 0.0162
Strand = CGGGGTTA; value = -0.129
Strand = CCAAGCGG; value = -0.425
Strand = CCCACATC; value = 0.00373
Strand = CGGGAACG; value = -0.277
Strand = CAAGCTGC; value = -0.134
Strand = CCAGGTAG; value = -0.149
Strand = CGAAAGAA; value = 0.0793
Strand = GTGACTTA; value = 0.106
Strand = CCTCTAAC; value = -0.166
Strand = CCGAATTC; value = -0.152
Strand = GTGCCCCA; value = -0.252

Series 5
Target: CCNA2, cyclin fold, Cln2 fusion (human)
Method: yeast growth competition, sequencing
Sample: yeast
Notes: strong parent motif
Reference: not given
Direction: higher = stronger binding
Endpoint: normalised enrichment score
Starting sequence: REV3L docking peptide (human); PPVIIKYIIINRF
Variant = PPVAIKYIIINRF [I4A]; value = 0.937
Variant = PAVIIKYIIINRF [P2A]; value = 1.6
Variant = PPVIIKAIIINRF [Y7A]; value = 1.09
Variant = PPVIIKYIIINRA [F13A]; value = 0.712
Variant = PPVIIKYIIINAF [R12A]; value = 1.04
Variant = APVIIKYIIINRF [P1A]; value = 1.19
Variant = PPVIIKYAIINRF [I8A]; value = 0.669

Other studies, line by line
Molecule = PhoQ, residues 284 288 289 292 302 303 SSYNSA; target = PhoP, residues 12 14 15 18 19 NYFTV (Escherichia coli, UniProt P23836); test = Sort-seq, item: YFP reporter; system = E. coli; setting = PhoQ-PhoP variant library, together with: 10 µM Mg2+; scale = reference: high Mg2+ state, higher = stronger signaling; endpoint = fold induction; value = 2.21

Excerpt of the above (series 3):
Variant = A40V; value = -1.51 natural log
Variant = M51N; value = -1.11 natural log
Variant = A46G; value = -1.48 natural log
Variant = L45Y; value = -1.54 natural log
